Assay results gathered from unrelated publications.
Parts stem from different laboratories: compare values within a part only.
UniProt O14920, sequence (whole entry, looked up): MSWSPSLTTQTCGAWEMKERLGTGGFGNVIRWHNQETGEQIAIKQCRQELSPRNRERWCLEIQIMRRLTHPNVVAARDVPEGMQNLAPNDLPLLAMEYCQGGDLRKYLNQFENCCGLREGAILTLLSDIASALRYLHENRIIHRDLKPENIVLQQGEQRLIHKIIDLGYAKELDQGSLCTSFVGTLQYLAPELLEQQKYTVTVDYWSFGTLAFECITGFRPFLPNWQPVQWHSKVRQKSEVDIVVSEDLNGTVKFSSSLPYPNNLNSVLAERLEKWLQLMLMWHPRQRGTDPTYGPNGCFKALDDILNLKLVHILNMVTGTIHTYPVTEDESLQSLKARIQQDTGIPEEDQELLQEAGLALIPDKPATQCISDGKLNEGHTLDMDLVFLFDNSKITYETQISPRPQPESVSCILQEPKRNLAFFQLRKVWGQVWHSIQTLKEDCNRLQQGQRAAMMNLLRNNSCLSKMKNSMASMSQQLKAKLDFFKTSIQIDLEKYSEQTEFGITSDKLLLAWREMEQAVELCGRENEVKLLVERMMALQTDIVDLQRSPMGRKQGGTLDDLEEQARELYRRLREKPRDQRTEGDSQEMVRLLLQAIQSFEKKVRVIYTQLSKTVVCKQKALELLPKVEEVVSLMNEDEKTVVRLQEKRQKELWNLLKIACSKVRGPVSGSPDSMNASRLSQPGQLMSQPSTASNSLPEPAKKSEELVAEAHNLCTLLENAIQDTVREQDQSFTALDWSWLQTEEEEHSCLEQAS
UniProt Q32MK0, sequence (whole entry, looked up): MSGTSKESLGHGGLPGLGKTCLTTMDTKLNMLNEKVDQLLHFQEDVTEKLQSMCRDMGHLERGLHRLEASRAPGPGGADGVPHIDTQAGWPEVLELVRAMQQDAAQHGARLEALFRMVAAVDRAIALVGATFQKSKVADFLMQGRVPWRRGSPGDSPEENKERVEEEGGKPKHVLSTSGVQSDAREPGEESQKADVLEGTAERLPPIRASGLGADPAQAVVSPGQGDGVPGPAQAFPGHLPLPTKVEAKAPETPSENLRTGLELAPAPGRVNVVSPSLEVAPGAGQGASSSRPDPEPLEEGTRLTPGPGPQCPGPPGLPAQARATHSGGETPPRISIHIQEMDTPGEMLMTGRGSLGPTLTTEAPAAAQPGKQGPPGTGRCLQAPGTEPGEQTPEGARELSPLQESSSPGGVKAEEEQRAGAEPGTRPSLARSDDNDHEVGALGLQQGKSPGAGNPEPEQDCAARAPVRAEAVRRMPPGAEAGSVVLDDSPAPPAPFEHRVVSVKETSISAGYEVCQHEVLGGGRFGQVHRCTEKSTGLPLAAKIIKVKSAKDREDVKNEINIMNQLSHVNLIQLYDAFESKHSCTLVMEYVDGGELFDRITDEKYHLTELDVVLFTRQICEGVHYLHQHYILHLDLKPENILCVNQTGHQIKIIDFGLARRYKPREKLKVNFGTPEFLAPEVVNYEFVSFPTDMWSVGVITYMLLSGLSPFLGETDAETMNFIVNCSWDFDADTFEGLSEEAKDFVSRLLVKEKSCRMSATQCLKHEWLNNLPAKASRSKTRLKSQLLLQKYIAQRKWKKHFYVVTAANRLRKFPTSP
UniProt Q8IYT8, sequence (whole entry, looked up): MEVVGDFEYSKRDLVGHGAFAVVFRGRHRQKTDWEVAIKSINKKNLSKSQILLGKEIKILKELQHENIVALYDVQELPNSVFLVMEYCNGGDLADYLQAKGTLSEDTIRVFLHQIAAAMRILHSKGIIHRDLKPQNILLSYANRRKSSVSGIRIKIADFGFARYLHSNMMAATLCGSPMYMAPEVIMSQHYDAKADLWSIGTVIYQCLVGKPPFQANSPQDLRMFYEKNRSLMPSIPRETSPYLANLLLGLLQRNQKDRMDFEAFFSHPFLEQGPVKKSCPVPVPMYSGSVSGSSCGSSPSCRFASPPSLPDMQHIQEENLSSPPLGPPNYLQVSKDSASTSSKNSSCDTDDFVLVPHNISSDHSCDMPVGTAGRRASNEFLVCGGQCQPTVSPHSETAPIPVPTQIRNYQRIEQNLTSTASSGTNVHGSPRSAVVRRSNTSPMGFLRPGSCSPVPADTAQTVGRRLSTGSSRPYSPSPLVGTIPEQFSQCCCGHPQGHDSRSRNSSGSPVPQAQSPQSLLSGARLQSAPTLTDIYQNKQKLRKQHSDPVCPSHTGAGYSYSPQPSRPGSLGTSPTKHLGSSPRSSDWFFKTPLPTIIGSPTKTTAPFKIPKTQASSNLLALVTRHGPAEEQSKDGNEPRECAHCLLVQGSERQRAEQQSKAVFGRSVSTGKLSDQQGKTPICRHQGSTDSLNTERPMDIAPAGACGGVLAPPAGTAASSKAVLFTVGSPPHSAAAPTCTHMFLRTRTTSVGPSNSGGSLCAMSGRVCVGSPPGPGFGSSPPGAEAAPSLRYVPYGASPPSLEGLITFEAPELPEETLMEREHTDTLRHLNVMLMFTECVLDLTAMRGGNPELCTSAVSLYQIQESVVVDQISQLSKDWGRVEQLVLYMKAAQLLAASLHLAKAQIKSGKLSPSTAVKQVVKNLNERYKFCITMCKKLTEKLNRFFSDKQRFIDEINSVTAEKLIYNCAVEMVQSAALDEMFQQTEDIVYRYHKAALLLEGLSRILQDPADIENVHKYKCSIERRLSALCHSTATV
UniProt Q92630, sequence (whole entry, looked up): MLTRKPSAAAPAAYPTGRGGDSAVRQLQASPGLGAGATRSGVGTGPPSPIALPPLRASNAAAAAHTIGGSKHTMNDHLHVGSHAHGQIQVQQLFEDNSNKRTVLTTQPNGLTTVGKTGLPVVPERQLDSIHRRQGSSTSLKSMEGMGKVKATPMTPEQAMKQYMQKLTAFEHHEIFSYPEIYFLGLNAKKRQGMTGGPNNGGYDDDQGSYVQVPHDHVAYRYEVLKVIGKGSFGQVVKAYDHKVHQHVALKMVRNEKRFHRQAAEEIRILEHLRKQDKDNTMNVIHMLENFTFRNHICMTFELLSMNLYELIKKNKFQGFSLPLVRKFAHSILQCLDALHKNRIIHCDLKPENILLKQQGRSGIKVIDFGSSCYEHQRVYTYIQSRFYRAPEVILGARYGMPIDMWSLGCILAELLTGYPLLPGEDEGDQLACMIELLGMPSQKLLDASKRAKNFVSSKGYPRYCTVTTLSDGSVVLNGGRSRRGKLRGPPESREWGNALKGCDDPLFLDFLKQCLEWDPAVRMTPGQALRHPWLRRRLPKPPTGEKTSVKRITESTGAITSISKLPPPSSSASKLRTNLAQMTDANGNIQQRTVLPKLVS
UniProt P54764, sequence (whole entry, looked up): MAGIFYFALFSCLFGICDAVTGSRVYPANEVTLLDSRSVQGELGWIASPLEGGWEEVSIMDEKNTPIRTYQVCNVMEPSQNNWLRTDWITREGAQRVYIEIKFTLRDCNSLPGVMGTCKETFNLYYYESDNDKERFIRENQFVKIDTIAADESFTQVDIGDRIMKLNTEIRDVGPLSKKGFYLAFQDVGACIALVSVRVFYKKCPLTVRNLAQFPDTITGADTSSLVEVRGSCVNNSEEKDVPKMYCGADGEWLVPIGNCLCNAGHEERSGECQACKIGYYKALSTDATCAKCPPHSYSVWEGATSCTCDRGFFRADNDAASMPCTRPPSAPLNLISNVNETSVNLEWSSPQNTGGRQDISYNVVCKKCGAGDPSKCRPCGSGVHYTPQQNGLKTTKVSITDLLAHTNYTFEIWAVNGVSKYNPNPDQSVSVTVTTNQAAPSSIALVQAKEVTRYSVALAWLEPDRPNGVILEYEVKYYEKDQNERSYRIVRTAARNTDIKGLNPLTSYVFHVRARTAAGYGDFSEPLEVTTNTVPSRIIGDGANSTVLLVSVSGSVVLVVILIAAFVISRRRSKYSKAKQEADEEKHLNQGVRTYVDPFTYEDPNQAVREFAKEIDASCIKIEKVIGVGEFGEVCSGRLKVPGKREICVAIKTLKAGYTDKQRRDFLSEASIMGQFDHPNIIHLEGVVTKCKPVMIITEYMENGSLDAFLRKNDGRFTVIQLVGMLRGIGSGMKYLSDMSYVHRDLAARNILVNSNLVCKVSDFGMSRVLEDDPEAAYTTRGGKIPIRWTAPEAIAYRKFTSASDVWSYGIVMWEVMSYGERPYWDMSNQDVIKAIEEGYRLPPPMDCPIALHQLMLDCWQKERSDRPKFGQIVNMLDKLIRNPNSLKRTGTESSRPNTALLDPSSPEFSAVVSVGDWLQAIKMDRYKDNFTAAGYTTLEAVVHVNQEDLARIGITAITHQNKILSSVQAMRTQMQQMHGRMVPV
UniProt P51955, sequence (whole entry, looked up): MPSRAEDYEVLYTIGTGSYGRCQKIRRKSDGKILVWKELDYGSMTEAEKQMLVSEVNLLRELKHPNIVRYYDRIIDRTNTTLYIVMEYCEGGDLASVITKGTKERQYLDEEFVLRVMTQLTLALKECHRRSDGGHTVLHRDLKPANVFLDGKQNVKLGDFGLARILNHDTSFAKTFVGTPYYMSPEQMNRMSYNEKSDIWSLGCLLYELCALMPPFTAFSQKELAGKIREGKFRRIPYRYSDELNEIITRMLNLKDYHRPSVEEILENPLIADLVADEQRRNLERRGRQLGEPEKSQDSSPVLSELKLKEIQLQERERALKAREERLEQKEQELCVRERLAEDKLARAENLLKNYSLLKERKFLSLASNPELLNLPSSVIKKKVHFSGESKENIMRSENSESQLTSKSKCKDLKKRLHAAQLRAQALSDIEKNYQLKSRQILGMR

Sample 1 — method: RNA Bind-n-Seq; molecule type: RNA; matrix: in vitro; concentration: 20 nM; setting: 6-mer, flanks averaged, single round; together with: 150 mM KCl; reference: input library; direction: higher = stronger binding
Target: TAR DNA-binding protein 43, full length, His tag (TARDBP, Homo sapiens, UniProt Q13148, residues 1-414)
Strand | 6-mer enrichment (R)
GAGUAG | 1.47
UUUACC | 0.609
UAAUUA | 0.72
GCAGCA | 1
CCAUGC | 0.675
AUUACG | 0.626
CUGUAU | 0.674
AUGAAG | 0.975

Sample 2 — method: competition protein-binding microarray; molecule type: double-stranded DNA, one strand shown; matrix: in vitro; concentration: 2 µM; together with: Pho4 competitor, 0.05 µM; direction: higher = stronger binding
Target: Centromere-binding protein 1, full length, His-tagged (CBF1, Saccharomyces cerevisiae, UniProt P17106, residues 1-351)
UniProt P17106, sequence (whole entry, looked up): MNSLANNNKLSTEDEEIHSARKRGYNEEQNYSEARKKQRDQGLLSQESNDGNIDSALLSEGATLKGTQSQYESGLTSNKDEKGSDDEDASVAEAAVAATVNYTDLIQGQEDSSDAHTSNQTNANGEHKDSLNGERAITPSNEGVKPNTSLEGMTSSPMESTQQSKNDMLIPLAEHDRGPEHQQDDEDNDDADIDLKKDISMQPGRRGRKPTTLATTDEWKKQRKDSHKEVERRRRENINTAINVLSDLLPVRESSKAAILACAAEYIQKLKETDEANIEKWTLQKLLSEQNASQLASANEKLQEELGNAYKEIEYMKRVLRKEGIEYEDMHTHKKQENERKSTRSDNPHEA
Setting: whole 60-bp probe, lowest competitor level
Strand | fluorescence intensity [a.u.]
TACGACATTGGCAATCACGTGTTGGGCTGCTCCTCCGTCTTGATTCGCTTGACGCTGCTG | 6000
CTAACGAAGGTTTTTCACGTGAATTACAAGCCAAGTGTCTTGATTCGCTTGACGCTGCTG | 888
TACGACGAAGCTTTGCACGTGTAGGAAAGAGGAAATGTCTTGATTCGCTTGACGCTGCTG | 862
AACTTAGCACCATCGCGCGTGCATCGCTGTATGTGTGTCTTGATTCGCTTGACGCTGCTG | 82.3
CATACCCAACCTTGATCGGTGGGTGAAGATATTTGTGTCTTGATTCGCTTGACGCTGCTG | 68.1
GTATCCATATCTTTTTGAGAGCATTGAAAGTATACGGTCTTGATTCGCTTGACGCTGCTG | 80.9
CAATAGCAGCGGCGGCATGATCTTGAGTCGAATAGAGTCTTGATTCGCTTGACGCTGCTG | 74.5
TGCGCAACAACTTGCACTGTGGGTGTATGTCTAGAAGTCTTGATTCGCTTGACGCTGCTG | 71.7

Sample 3 — observed: enzyme activity; mode: inhibitor; concentration: 0.5 µM; reference: control
Target: cGMP-dependent protein kinase 1, isoform beta (PRKG1, Homo sapiens, UniProt Q13976)
Residues (Q13976 1-671): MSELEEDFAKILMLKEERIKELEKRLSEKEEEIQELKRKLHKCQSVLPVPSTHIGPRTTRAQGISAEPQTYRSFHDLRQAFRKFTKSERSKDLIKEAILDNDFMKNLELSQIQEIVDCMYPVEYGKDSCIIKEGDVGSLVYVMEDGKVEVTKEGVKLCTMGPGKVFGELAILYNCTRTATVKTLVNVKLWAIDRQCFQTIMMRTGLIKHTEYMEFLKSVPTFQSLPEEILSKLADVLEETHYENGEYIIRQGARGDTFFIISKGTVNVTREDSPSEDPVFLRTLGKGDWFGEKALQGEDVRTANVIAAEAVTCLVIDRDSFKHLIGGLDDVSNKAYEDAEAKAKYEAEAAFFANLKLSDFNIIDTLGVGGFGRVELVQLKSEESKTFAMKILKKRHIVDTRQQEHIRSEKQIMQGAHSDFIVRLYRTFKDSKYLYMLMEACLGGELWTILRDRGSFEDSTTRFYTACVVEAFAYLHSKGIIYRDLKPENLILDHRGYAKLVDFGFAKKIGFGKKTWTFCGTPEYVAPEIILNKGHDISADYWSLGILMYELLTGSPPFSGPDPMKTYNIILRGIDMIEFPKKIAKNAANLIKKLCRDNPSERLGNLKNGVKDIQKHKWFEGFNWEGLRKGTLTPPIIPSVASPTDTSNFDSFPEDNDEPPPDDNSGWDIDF
SMILES | remaining activity [%]
N#CCCc1ccc2c(c1)-c1[nH]c3ccc([N+](=O)[O-])cc3c1CC(=O)N2 | 88.4
CC(C)[C@H](CO)Nc1nc(Nc2cc(N)cc(Cl)c2)c2ncn(C(C)C)c2n1 | 102
O=c1c2ccccc2[nH]c(=S)n1CCN1CCC(=C(c2ccc(F)cc2)c2ccc(F)cc2)CC1 | 95.7
COc1ccc(OC)c2c(=S)c3ccccc3[nH]c12 | 94.4
O=C(O)c1ccc2c3c1cccc3c(=O)n1c3ccccc3nc21 | 95.1
O=C1NC(=O)C(c2cn(CCCO)c3ncccc23)=C1c1cnccn1 | 78.8
O=C(Nc1cccc(Nc2cc(Nc3cccc(C(F)(F)F)c3)ncn2)c1)C1CC1 | 90.6
Nc1ccc2ncnc(NCCc3ccc(Oc4ccccc4)cc3)c2c1 | 94.5
O=S(=O)(c1cccc2cnccc12)N1CCCNCC1 | 87.7
OCC(O)CCON=C1C(c2c(O)[nH]c3ccccc23)=Nc2ccccc21 (centres unmarked) | 53
COc1cc2ncnc(Nc3ccc(Oc4ccccc4)cc3)c2cc1OC | 93.6
Cc1ccc(NC(=O)c2ccc(CN3CCN(C)CC3)cc2)cc1Nc1nc(-c2cccnc2)cs1 | 93.8
Oc1ccc(-c2nc(-c3ccncc3)c(-c3ccc(F)cc3)[nH]2)cc1 | 87
Cc1nc(-c2ccccc2)c(-c2ccncc2)o1 | 96.1
O=C(CCCc1ccc(-c2ccccc2F)cc1)Nc1ccc(O)cc1 | 99.9

Sample 4 — observed: cell-free assay; method: competition with immobilised ligand; concentration: 1 µM
SMILES: CCc1ccccc1C(=O)Nc1n[nH]c2c(C)c(F)c(C3C(C#N)=C(C)N(C)C(C)=C3C#N)cc12
target | remaining binding
IKBKB (Homo sapiens, UniProt O14920) | 94%
SLK (Homo sapiens, UniProt Q9H2G2) | 100%
NEK2 (Homo sapiens, UniProt P51955) | 87%
WNK1 (Homo sapiens, UniProt Q9H4A3) | 100%
ULK2 (Homo sapiens, UniProt Q8IYT8) | 100%
RIOK1 (Homo sapiens, UniProt Q9BRS2) | 82%
DYRK2 (Homo sapiens, UniProt Q92630) | 82%
MARK1 (Homo sapiens, UniProt Q9P0L2) | 36%
MYLK3 (Homo sapiens, UniProt Q32MK0) | 100%
EPHA4 (Homo sapiens, UniProt P54764) | 100%
